Measured values gathered from unrelated publications.
Every numbered part comes from another study and shows a few of its results, in no order.

Study 1
Target: Interferon regulatory factor 7, full length, phosphomimetic (IRF7, Homo sapiens, UniProt Q92985, residues 1-503, S101K/S471D/S472D/S475D/S476D/S477D/S483D/S484D/S487D)
Sequence of UniProt Q92985 (whole entry, unmodified, looked up): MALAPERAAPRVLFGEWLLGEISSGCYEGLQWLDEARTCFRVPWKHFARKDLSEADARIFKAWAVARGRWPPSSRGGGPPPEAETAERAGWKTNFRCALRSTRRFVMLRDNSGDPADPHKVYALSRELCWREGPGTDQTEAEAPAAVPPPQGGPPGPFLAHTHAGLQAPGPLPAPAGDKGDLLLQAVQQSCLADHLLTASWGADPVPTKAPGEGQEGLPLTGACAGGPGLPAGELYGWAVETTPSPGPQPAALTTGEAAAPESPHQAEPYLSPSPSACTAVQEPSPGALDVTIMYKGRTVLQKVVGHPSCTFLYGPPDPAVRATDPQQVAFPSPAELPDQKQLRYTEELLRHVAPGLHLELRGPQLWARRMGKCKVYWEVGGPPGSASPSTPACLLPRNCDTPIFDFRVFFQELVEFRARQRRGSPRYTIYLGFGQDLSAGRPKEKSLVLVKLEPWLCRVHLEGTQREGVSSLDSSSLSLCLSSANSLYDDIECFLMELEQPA
Method: protein-binding microarray
Molecule type: double-stranded DNA, one strand shown
Sample: in vitro
Tested at: 250 nM
Setting: 60-bp whole probe
Added: salmon DNA 0.4 mg/ml
Relative to: random background probes
Reading: higher = stronger binding
All sequences stand within: GCCTAGCAC … GTCTTGATTCGCTTGACGCTGCTG
Oligonucleotide | log fluorescence
TCCTCTTTCACTGCTCCATACGTGCTA | 1.42 z-score
TTAGGACTGGACACTGGTTTAGTGCTA | -0.274 z-score
TCACATTTCCCTTGCCGACTGTGCTAG | 1.5 z-score
GACGGTTTCGGTTTCGGAACGTGCTAG | 14.9 z-score
CTAGGTTTCGGTATCGGTTAGTGCTAG | 11.1 z-score
TTAGATATCAGTTTCGAGTAGTGCTAG | 4.56 z-score
CTCCCCCTCAGATCTGCCGTCGTGCTA | 0.0786 z-score

Study 2
Target: Histone acetyltransferase KAT6A, both winged helices, GST fusion (KAT6A, Homo sapiens, UniProt Q92794, residues 1-181)
Method: protein binding microarray
Molecule type: double-stranded DNA, one strand shown
Sample: in vitro
Tested at: not given
Setting: 8-mer, flanks averaged, mean of 2 arrays, mostly near background
Relative to: not given
Reading: higher = stronger binding
Construct (chain): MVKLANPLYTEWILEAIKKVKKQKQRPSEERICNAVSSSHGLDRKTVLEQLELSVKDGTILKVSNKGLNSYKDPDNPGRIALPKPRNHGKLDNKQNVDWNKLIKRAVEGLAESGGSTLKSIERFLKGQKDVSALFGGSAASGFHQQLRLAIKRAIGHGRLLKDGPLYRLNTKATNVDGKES
Oligonucleotide | E-score
TAAAGAAA | -0.137
AGTATTGC | -0.157
AATCTGAG | -0.0372
AAAGGCCT | -0.034
TACTGGAA | -0.142
ATCGTCGG | 0.0661
ATGTCTGG | -0.163

Study 3
Target: Ras GTPase-activating protein-binding protein 1, full length (G3BP1, Homo sapiens, UniProt Q13283)
Sequence of UniProt Q13283 (whole entry, looked up): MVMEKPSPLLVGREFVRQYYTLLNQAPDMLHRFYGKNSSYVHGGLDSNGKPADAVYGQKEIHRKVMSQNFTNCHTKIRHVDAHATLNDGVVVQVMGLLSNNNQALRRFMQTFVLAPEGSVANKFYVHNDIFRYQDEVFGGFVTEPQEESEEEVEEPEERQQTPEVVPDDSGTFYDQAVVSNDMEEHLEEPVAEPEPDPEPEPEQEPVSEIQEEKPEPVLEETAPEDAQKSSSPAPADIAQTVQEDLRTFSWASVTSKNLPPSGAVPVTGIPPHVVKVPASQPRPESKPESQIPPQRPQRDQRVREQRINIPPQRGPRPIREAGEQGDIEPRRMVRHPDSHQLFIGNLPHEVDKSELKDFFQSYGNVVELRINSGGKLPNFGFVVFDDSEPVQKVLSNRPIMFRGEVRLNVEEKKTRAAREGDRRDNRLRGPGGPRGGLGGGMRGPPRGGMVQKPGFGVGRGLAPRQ
Method: RNA Bind-n-Seq
Molecule type: RNA
Sample: in vitro
Tested at: 200 nM
Setting: whole 134-nt RNA, ends assumed
Added: 150 mM LiCl
Relative to: input library
Reading: higher = stronger binding
Library: 7-deaza-guanosine replaces G
All sequences stand within: GGGAGUUCUACAGUCCGACGAUC … UGGAAUUCUCGGGUGUCAAGG
Oligonucleotide | log2 enrichment
UUCCGGAAGAAGAAGCUCCGAUUUGGCCGGAGCCGGAUCCACGAGUGGGGUCUGUUUGCCAUGGAACCCAUUGCUGCUGACGAGAUGGUC | -0.642
UAACUUUAGAGGAGGAUCUGAUGGAUAUGGCAGUGGACGUGGAUUUGGGGAUGGCUAUAAUGGGUAUGGAGGAGGGCCUGGAGGUGGCAA | 0.554
CAAGUCCUGUGCUACACAUCGUAUGUACCGAAUCGGUUUGGGUUUGGGUUUGGGGAAAGUAUUAUGUUACGCCGUUCGGAUCUGCACUUC | -0.714
AAGUCCUGUGCUACACAUCGUAUGUACCGAAUCGGGAAAGGGUUUUUUUGGGAGGGAAAGUAUUAUGUUACGCCGUUCGGAUCUGCACUU | -0.809
ACCAUGCAGGUGGGCAUCUUUGGGAAGUGGGGCAAGGGGGGGAUAGGGAGGGGGGUAACAAAAUGGGAACAGGUGGUCCCAGGUCGUUUC | -0.00402
CAAGUCCUGUGCUACACAUCGUAUGUACCGAAUCGGGUUUUUUUGGGUGGGAGGGAAAGUAUUAUGUUACGCCGUUCGGAUCUGCACUUC | 0.321
CCUGUGCUACACAUCGUAUGUACCGAAUCGGGGAAAAAAGGGGAAAAAAGGAAAAAAGGGAAAGUAUUAUGUUACGCCGUUCGGAUCUGC | 0.403
UGGGAGGUGGAUUUUGUUUAUUUUUUUAGCUCAUUUCCAGGGGUGGGAAUUUUUUUUUAAUAUGUAUCAUGAAUAAAGUUGUUUUUGAAA | -0.359

Further values, each from its own experiment
Substance | target | assay | test system | conditions | how to read | measurement | value
PhoQ, residues 284 288 289 292 302 303 GTAMQF | PhoP, residues 12 14 15 18 19 TQCLL (Escherichia coli, UniProt P23836) | Sort-seq, item: YFP reporter | E. coli | PhoQ-PhoP variant library, added: 10 µM Mg2+ | relative to: high Mg2+ state, higher = stronger signaling | fold induction | 0.461

Excerpt of the above (study 3):
Oligonucleotide | log2 enrichment
UAACUUUAGAGGAGGAUCUGAUGGAUAUGGCAGUGGACGUGGAUUUGGGGAUGGCUAUAAUGGGUAUGGAGGAGGGCCUGGAGGUGGCAA | 0.554
ACCAUGCAGGUGGGCAUCUUUGGGAAGUGGGGCAAGGGGGGGAUAGGGAGGGGGGUAACAAAAUGGGAACAGGUGGUCCCAGGUCGUUUC | -0.00402
UUCCGGAAGAAGAAGCUCCGAUUUGGCCGGAGCCGGAUCCACGAGUGGGGUCUGUUUGCCAUGGAACCCAUUGCUGCUGACGAGAUGGUC | -0.642
AAGUCCUGUGCUACACAUCGUAUGUACCGAAUCGGGAAAGGGUUUUUUUGGGAGGGAAAGUAUUAUGUUACGCCGUUCGGAUCUGCACUU | -0.809
